Results gathered from unrelated publications.
Lines come from different studies, so protocols differ. ± marks the error that the study gave.
Organism: Mycobacterium tuberculosis

Compound	read-out	technique	cells	strain	time	notes	IC50 [µM]
Cc1ccccc1CN1CCC(O)(c2ccc(Cl)c(C(F)(F)F)c2)CC1	microbial growth						0.74
Cc1c(-c2ccc(Oc3ccc(OC(F)(F)F)cc3)nc2)[nH]c2ccccc2c1=O	bacterial growth			H37Rv		Wayne model, oxygen-limited	> 10
Cc1cccc(-c2nc(Nc3ccncn3)c3sccc3n2)n1	microbial growth						11.6
NC(=O)c1cc(-c2ccsc2)ccc1OCCc1cc(F)cc(F)c1	microbial growth						0.07
Nc1c2c(nc3sc4c(c13)CCCCC4)CCCC2	ATP level			H37Rv		anaerobic	> 10
COc1ccc2c(=O)c(C)c(-c3ccc(N4CCCCC4)cc3)[nH]c2c1	bacterial growth			H37Rv		Wayne model, oxygen-limited	0.6 ± 0.12
COC(=O)C(=O)[C@H](CC(C)C)NC(=O)[C@H](CCCCN)NC(=O)[C@H](Cc1ccccc1)NC(=O)OCc1ccccc1	bacterial growth		THP-1 macrophages	Mtb-lux	48 h		4.6 ± 1.2
CC(C)(C)c1ccc(-c2cncc(-c3nc4ccc5cc(C(=O)O)cc(O)c5c4[nH]3)c2)cc1		resazurin		wild type	168 h	nutrient-starved	4
CCc1ccc(C2CC(C(F)(F)F)n3ncc(C(=O)NCc4ccc(OC)cc4)c3N2)cc1 (stereo not drawn)	microbial growth						0.74
CCC1=NN2C(=N)C(=Cc3ccc(Sc4ccc(C)cc4)o3)C(=O)N=C2S1		resazurin		wild type	168 h	nutrient-starved	2
CCc1ccc(CN2CCC3(CC2)OCCc2sccc23)s1	microbial growth						3.43
C=CCNC(=O)N1Cc2ccc(NC(=O)NC3CC3c3ccccc3)cc2C1 (stereo not drawn)		resazurin		wild type	168 h	nutrient-starved	4
CN(C)c1ccc(-c2nc3ccccc3n2CCCOc2ccccc2)cc1	ATP level			H37Rv		anaerobic	9.74
COc1ccc(CC(=O)Nc2c(-c3cccs3)nc3cc(C)ccn23)cc1	microbial growth						16.3
Fc1cccc(CN2CCN(c3ccccc3)CC2)c1OCC1CC1		resazurin		wild type	168 h	nutrient-starved	8

Repeated from above:
Compound	read-out	technique	cells	strain	time	notes	IC50 [µM]
C=CCNC(=O)N1Cc2ccc(NC(=O)NC3CC3c3ccccc3)cc2C1 (stereo not drawn)		resazurin		wild type	168 h	nutrient-starved	4
CN(C)c1ccc(-c2nc3ccccc3n2CCCOc2ccccc2)cc1	ATP level			H37Rv		anaerobic	9.74
